Experimental data gathered from unrelated publications.
Compare with care: the assays were run in different laboratories. Several values in a cell are separate wells, animals, samples, runs or records. ± marks the error that the study gave.
Chain of UniProt Q16678 (whole entry, looked up): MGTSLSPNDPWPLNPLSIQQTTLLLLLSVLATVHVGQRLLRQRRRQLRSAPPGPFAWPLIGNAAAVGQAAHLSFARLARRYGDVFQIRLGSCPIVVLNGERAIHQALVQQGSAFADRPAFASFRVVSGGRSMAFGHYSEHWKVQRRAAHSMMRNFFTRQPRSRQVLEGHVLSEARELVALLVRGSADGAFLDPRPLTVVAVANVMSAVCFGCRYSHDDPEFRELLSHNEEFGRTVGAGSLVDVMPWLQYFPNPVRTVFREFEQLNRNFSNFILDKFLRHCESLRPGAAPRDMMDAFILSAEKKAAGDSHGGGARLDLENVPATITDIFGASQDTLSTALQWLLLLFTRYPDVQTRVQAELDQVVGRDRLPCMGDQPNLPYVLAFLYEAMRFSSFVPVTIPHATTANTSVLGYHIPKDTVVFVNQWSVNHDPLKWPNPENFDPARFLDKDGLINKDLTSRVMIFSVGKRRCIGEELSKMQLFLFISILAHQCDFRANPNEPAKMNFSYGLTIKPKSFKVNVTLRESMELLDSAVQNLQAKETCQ
Chain of UniProt P06808 (whole entry, looked up): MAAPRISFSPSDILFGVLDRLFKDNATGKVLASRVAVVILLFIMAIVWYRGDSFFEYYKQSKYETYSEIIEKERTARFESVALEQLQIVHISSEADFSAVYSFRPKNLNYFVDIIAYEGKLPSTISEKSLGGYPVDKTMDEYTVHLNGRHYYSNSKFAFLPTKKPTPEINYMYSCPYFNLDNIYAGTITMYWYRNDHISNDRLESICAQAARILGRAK
Chain of UniProt Q9LFP6 (whole entry, looked up): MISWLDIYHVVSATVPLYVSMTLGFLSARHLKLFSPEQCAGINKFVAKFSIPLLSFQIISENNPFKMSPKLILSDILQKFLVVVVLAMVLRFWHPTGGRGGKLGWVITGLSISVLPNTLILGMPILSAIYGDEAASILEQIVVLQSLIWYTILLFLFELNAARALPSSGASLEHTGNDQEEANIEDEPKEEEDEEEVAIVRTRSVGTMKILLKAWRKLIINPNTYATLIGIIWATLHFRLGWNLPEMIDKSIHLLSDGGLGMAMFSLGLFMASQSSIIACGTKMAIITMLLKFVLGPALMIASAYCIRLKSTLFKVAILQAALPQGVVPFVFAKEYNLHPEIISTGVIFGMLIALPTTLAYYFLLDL
Chain of UniProt Q13126 (whole entry, looked up): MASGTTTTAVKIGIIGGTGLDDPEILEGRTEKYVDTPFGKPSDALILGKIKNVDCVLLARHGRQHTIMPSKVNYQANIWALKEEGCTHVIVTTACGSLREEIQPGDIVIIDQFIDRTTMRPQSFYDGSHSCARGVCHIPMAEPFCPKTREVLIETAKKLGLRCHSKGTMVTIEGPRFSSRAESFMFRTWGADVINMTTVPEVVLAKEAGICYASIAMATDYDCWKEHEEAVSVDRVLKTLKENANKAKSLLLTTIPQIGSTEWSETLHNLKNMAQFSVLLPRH
Chain of UniProt P13304 (whole entry, looked up): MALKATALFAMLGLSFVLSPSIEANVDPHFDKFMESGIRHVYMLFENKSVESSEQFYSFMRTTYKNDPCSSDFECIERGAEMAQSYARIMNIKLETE
Chain of UniProt E9QYP0 (whole entry, looked up): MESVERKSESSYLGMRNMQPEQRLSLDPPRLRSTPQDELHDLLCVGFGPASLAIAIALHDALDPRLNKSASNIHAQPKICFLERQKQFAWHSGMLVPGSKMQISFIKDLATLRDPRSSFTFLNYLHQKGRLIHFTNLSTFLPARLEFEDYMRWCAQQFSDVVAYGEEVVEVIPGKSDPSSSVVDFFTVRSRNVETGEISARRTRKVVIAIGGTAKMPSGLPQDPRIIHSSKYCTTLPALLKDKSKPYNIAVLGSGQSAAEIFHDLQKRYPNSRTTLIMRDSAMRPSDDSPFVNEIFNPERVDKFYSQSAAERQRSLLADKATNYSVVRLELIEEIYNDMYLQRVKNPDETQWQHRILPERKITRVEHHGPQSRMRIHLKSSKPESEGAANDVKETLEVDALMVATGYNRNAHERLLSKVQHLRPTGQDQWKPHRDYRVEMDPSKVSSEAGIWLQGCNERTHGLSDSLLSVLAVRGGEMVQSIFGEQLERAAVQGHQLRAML

[N-]=[N+]=Nc1ccc[n+]([C@@H]2O[C@H](COP(=O)([O-])OP(=O)(O)OC[C@H]3O[C@@H](n4cnc5c(N)ncnc54)[C@H](O)[C@@H]3O)[C@@H](O)[C@H]2O)c1  Kd (glucose dehydrogenase (Bacillus megaterium); tryptophan fluorescence quenching; pH 7.5, added: gluconolactone): 142 µM
NC(=O)C1=CN([C@@H]2O[C@H](COP(=O)(O)OP(=O)(O)OC[C@H]3O[C@@H](n4cnc5c(N)ncnc54)[C@H](OP(=O)(O)O)[C@@H]3O)[C@@H](O)[C@H]2O)C=CC1  Kd (L-ornithine N(5)-monooxygenase (Neosartorya fumigata, UniProt E9QYP0); fluorescence polarization displacement; pH 7.0, added: 30 nM fluorescent probe): 3.3 ± 0.1 µM
5′-methylthioadenosine  Kd (S-methyl-5'-thioadenosine phosphorylase (MTAP, Homo sapiens, UniProt Q13126); ligand, isothermal titration calorimetry; pH 7.4, 25 °C, second set of sites): 0.7 µM
CCCCCCC(CCCCCCCCCCC(=O)O)N(C)c1ccc([N+](=O)[O-])c2nonc12 (stereo not shown)  Kd (Sterol carrier protein 2 (Homo sapiens, UniProt P22307); binding, fluorescence): 0.22 µM
COc1cc(C(=O)NS(=O)(=O)c2ccccc2C)ccc1Cc1cn(C)c2ccc(NC(=O)OC3CCCC3)cc12  Kd (dnaK (Escherichia coli, UniProt P0A6Y8); binding, tryptophan fluorescence; 20 min, 37 °C, added: ATP 1 mM): 13 ± 1.7 µM
CC#Cc1cc2ccccc2c2ccccc12  Kd (Cytochrome P450 1B1 (CYP1B1, Homo sapiens, UniProt Q16678); binding, fluorescence; pH 7.4): < 2.5 µM and 1.6 µM
phosphate  Kd (t/rI (Enterobacteria phage T4, UniProt P06808+P13304); binding, fluorescence quenching; pH 7.5): 18600 µM
[Ni+2]  Kd (methionine aminopeptidase (Acinetobacter baumannii, UniProt A0A7U4DGZ4); metal binding, activator, activity titration; ATCC 17978; divalent metal ion Kd, added: Met-AMC substrate): 0.26 µM
CC(=O)N[C@@H](CC(C)C)C(=O)N[C@@H](CCCCN)C(=O)N[C@@H](CCCCN)C(=O)N[C@@H](CC(C)C)C(=O)N[C@@H](CC(C)C)C(=O)N[C@@H](CCCCN)C(=O)N[C@@H](CC(C)C)C(=O)N[C@@H](Cc1c[nH]c2ccccc12)C(=O)N[C@@H](CCCCN)C(=O)N[C@@H](CCCCN)C(=O)N[C@@H](CC(C)C)C(=O)N[C@@H](CC(C)C)C(=O)N[C@@H](CCCCN)C(=O)N[C@@H](CC(C)C)C(=O)N[C@@H](C)C(=O)NCC(N)=O  Kd (HCV IRES domain IV hairpin; competitive fluorescence anisotropy; pH 7.4, 20 °C, added: rhodamine-Rev peptide): 0.092 ± 0.01 µM
Nc1nc2c(ncn2[C@H]2C[C@H](O)[C@@H](COP(=O)(O)OP(=O)(O)OP(=O)(O)O)O2)c(=O)[nH]1  Kd (DNA-directed DNA polymerase, with primer/template (43, Escherichia phage RB69, UniProt Q38087, D222A/D327A); binding, stopped-flow fluorescence; opposite tC°): 170 µM
O=C(O)COc1ccc(Cl)cc1Cl  Kd (PIN8 (Arabidopsis thaliana, UniProt Q9LFP6); cell-free assay): 60 µM
[Cl][Mn][Cl]  Kd (Genome polyprotein, NS3 helicase domain (Hepatitis C virus genotype 1b, UniProt Q9WMX2); binding, FRET; pH 6.25, added: 2 µM mantADP-BeF3): 40 µM
CN[C@@](C)(C[18F])C(=O)O  tracer uptake (mouse, pancreas; 1 h, tumour-bearing): 34 %ID/g
